Measured values gathered from unrelated publications.
Every numbered part comes from another study and shows a few of its results, in no order.

Set 1 — method: aptamer microarray, sandwich; form: DNA with 2'F-ANA; medium: in vitro; concentration: 200 nM; together with: Cy3 exosite-II aptamer, 400 nM; reading: higher = stronger binding; strand: GGTTGGTGTGGTTGG
Target: Prothrombin, mature alpha-thrombin (F2, Homo sapiens, UniProt P00734)
Notes: whole 15-mer aptamer, many near background
| Modification | mean fluorescence intensity |
| --- | --- |
| 2'F-ANA at 3 5 7 8 10 13 14 15 | 70.1 a.u. |
| 2'F-ANA at 3 4 5 7 8 9 15 | 113 a.u. |
| 2'F-ANA at 1 2 4 5 6 7 9 12 14 | 44.6 a.u. |
| 2'F-ANA at 5 7 10 11 12 14 | 43 a.u. |
| 2'F-ANA at 1 2 4 8 9 10 11 | 47 a.u. |
| 2'F-ANA at 3 9 10 11 12 15 | 550 a.u. |
| 2'F-ANA at 3 4 8 11 12 13 | 796 a.u. |
| 2'F-ANA at 3 4 7 8 9 13 14 | 296 a.u. |
| 2'F-ANA at 2 3 4 6 7 8 9 11 13 15 | 356 a.u. |
| 2'F-ANA at 3 5 6 7 10 12 13 | 56.5 a.u. |
| 2'F-ANA at 1 2 4 5 6 7 8 9 11 13 14 | 47.2 a.u. |
| 2'F-ANA at 2 4 9 14 | 102 a.u. |
| 2'F-ANA at 1 3 4 5 6 8 9 11 12 13 14 | 45.7 a.u. |
| 2'F-ANA at 3 6 7 8 9 14 | 527 a.u. |
| 2'F-ANA at 4 6 7 8 9 11 13 14 | 104 a.u. |
| 2'F-ANA at 2 3 4 5 7 9 10 11 12 15 | 53.5 a.u. |
| 2'F-ANA at 1 2 3 5 7 8 9 12 14 15 | 49.5 a.u. |
| 2'F-ANA at 2 3 6 7 8 9 11 13 15 | 534 a.u. |
| 2'F-ANA at 2 6 8 9 14 15 | 115 a.u. |
| 2'F-ANA at 3 4 5 7 9 10 11 12 | 56.1 a.u. |
| 2'F-ANA at 1 2 4 5 7 8 11 13 14 15 | 46.1 a.u. |
| 2'F-ANA at 6 8 10 13 | 143 a.u. |
| 2'F-ANA at 1 2 3 5 8 | 64.6 a.u. |
| 2'F-ANA at 3 4 6 7 12 14 | 348 a.u. |
| 2'F-ANA at 1 2 4 5 7 8 10 11 12 13 15 | 49 a.u. |

Set 2 — method: universal PBM; form: double-stranded DNA, one strand shown; medium: in vitro; concentration: not given; reading: higher = stronger binding
Target: Sal-like protein 4, full length isoform B (SALL4, Homo sapiens, UniProt Q9UJQ4-2, residues 1-616)
Notes: 8-mer, flanks averaged, mean of replicates
| Strand | E-score |
| --- | --- |
| AATGACGT | 0.164 |
| ATTACTCG | 0.226 |
| AAGCAGTA | 0.13 |
| ATTTGCGG | 0.162 |
| CAACACAA | 0.0898 |
| AATGTGGC | -0.0527 |
| AACATTTA | 0.315 |
| CCAATTCC | -0.0547 |
| ACGCTGGA | -0.174 |
| GTACCAAC | -0.0595 |
| ATCTTACC | 0.0802 |
| CCCTGAAC | 0.0474 |
| AAGCACGT | 0.0399 |
| CAAGTGGC | 0.0154 |
| AACCGATC | -0.128 |
| AACACCCC | -0.0546 |

Set 3 — method: RNA Bind-n-Seq; form: RNA; medium: in vitro; concentration: 365 nM; relative to: no-protein control; reading: higher = stronger binding
Target: RNA binding protein fox-1 homolog 2, RRM domain, GST-SBP tag (RBFOX2, Homo sapiens, UniProt O43251-10, residues 100-194)
Notes: natural RNA segment, single round, ends assumed
Constant ends, left off below: GGGAGUUCUACAGUCCGACGAUC … UGGAAUUCUCGGGUGCCAA
Construct (chain): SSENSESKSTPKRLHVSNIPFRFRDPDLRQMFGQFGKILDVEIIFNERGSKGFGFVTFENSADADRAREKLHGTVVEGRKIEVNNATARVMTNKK
| Strand | RBNS enrichment (R) |
| --- | --- |
| CCCUGGGACCCAAAUGGAAGGGGAGACUUAUCUCCUGCAAGUUGUCUUUUAACCUGCGCAUGUGUGUGCACAUGUGCAUGCGCAUACACACACACACACACACACACACA | 0.744 |
| UUGGAAAGAAAGAUGAAAACGUAGAAUGUAGUGCUAAGAACGUUUCCCGUUCUCUCAUGCCUUCGCCCUCCGCCCUCCGAGAUCCCUGAAGGAGGAAAGAGAUAAAGGUU | 0.413 |
| AUUUGGUUUUACUUGUUGAUUUUGAGCCUUAUUGUCACAAAACAGCCUAGCUGGAAUAUUGAUGCCAUACUAUAUUUUGCAUGCUAUUUUCUUCCCUAGAGGCAUUGAGG | 1.81 |
| GCGUUGAUCAUGGACUACUAAAAUGCCUUCACACAGGAGGCUUUGACUUGCACAAUUCUUUGGGAAGAAACUGCACACCCAUAGGACAGUCGAUAAGGCUGAGUCGGGGA | 0.295 |
| CUGGGGCCAGGGGCUGAUUCACUUCCUUGGGAGAUGGUGGUGUUUUCAUGAACAUCUUUGAUCCUUCCAUUUCAUUUAUUCAUCCAUCCAUUCAACAAGUAUUUGCUAAA | 0.367 |
| ACUGAGGGCAGGAUGCUCUCCCACCCGGACCCCUCCAGCCAAGCAGCCCUUCAAGUUCUUUUAUUUCUGGGUAACAGAAGUAGACAGACAGGUUACUUGGUGUAUCUUCU | 0.183 |
| ACUCCCCUUAUGGUCUACCAGUAAUUCAUACUUGAGGACCAUGACUGUGGGGAAUGAGGCAUCUUUUAGCAAGAGCUCUCACCAAUUGUAGAUUGGUGUGAAUUGCUAAG | 0.226 |
| CUUUGUUUAAUAAGAACCUCAUUUAAACUUGACAGCUAUGGUAUUUUUUUAAUGAUAACUUCUUUUCUGUUUAUUGUAAAACUAAGUUAAAAAUAAAAGGUUAAUGAGAA | 0.521 |
| GCUGCACAUACCUUUUUCAAAAGGGACACUCGGGAAGUCACUGCUGUGACCGUUUCGAUGUUGAUAAGAAGGUGAAUUUACUGUAGUGUUACCACCUUCUCCCCACUUGA | 0.913 |
| AUCUGCAGCCUUCAGAAUGUCCUGUAGGAGUGUCACCAACCCAGGUCCAAGUGUUCAUGCCUGUCCUUCACCAGGGACUGUAGGACCCUUACUUGUUUUGUUUGGUUGGG | 2.03 |
| GUAGACAGUGUUCAUUUGAUUUUCUACAGAAAUAAUAUAAAUUAUUCUUUAGGUUUAAAAAAGAGCACUCAUAAUGCAAUAUGUGAAUAAUCAGUGAGGUUGAUUUUUCU | 1.03 |
| UUUAUAUUGUUUGGUUGGUUGAAUAAAUUUGCGACACUCAAACACUUGAGGUGAUAGUUGUUAAAAACAAUACCAGUAUUUGAUCCAGUUUCAUCUCAACUAUGUUAUAC | 0.326 |

Set 4 — method: protein binding microarray; form: double-stranded DNA, one strand shown; medium: in vitro; concentration: not given; relative to: not given; reading: higher = stronger binding
Target: Histone acetyltransferase KAT6A, both winged helices, GST fusion (KAT6A, Homo sapiens, UniProt Q92794, residues 1-181)
Notes: 8-mer, flanks averaged, mean of 2 arrays, mostly near background
Residues (chain): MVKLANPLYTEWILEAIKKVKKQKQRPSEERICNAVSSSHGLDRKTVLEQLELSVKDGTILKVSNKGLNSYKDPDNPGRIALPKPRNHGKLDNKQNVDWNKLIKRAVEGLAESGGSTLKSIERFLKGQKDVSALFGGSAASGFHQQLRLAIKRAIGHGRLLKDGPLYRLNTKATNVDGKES
| Strand | E-score |
| --- | --- |
| TTTAGAAA | 0.0504 |
| TACAATGA | -0.167 |
| CGAAAACG | 0.175 |
| CAAATGGC | -0.0129 |
| AGGTCTGC | -0.0459 |
| GCACCTAC | -0.0103 |
| CTTCCGTC | 0.247 |
| GGACCTAA | -0.0312 |
| GGTCGTTA | -0.101 |
| AGACAAGG | -0.0247 |
| CTATACTA | 0.0118 |
| CGAGCCTC | 0.0113 |
| ACCTTACT | -0.218 |
| AGAATACT | -0.196 |
| GGGACATA | -0.0583 |
| GAAATATC | 0.0217 |
| CCCGTCCG | 0.253 |
| CCGGAGGA | 0.0604 |
| AGACGTGG | 0.00387 |
| TCCATGAA | -0.062 |
| CAAGGTAG | -0.114 |
| CGGGATTA | 0.202 |
| ACCCCACC | -0.0202 |
| CGAGTGAA | 0.0446 |
| GACCTGGA | -0.155 |

Set 5 — method: protein-binding microarray; form: double-stranded DNA, one strand shown; medium: in vitro; concentration: 2540 nM top; notes: 60-bp whole probe; together with: salmon DNA 0.4 mg/ml; relative to: random background probes; reading: higher = stronger binding; constant ends, left off below: GCCTAGCAC … GTCTTGATTCGCTTGACGCTGCTG
Target: Interferon regulatory factor 3, full length, phosphomimetic (IRF3, Homo sapiens, UniProt Q14653, residues 1-427, S386D/S396D/S398D/S402D/T404D/S405D)
Target sequence (chain): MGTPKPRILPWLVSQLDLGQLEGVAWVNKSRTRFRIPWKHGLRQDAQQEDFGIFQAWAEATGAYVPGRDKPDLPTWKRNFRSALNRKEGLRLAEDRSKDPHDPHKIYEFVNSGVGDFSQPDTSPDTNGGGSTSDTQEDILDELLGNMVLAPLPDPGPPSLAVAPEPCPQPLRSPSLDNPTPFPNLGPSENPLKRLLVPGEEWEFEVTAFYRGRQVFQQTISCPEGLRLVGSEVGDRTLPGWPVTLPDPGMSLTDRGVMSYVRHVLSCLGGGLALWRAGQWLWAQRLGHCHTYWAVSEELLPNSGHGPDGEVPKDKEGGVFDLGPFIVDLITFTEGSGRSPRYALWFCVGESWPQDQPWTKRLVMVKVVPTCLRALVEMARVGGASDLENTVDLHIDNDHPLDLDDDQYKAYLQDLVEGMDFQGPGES
| Strand | fitted relative affinity [z-score] |
| --- | --- |
| TCACTTCTGTTTTTGCTACTGTGCTAG | 2.12 |
| GACGGTTTCGGTCTCTGGACGTGCTAG | 8.35 |
| ACCATTTTTTTTCACTATTGGTGCTAG | 1.73 |
| TTACAACTGAGTATCGATTAGTGCTAG | 0.314 |
| TTAGAACTGGGGCTTCGATTAGTGCTA | -0.981 |
| TTAGTACTGAGTATCGATTAGTGCTAG | 0.469 |
| GATGGAAACTTAAACTAGAAAGTGCTA | 1.02 |
| GAGGGTTTCGACTATCGGGACGTGCTA | 1.42 |
| TTAGGTCTCCTGTTCCTTTAGTGCTAG | 0.952 |
| CTGCTCTGTGCACAGAAGACGTGCTAG | 0.436 |
| TTAGGACTGCTTATCCTTCAGTGCTAG | -0.232 |

Excerpt of the above (set 1):
| Modification | mean fluorescence intensity |
| --- | --- |
| 2'F-ANA at 3 6 7 8 9 14 | 527 a.u. |
| 2'F-ANA at 4 6 7 8 9 11 13 14 | 104 a.u. |
| 2'F-ANA at 2 3 4 5 7 9 10 11 12 15 | 53.5 a.u. |
| 2'F-ANA at 1 2 3 5 7 8 9 12 14 15 | 49.5 a.u. |
| 2'F-ANA at 2 3 6 7 8 9 11 13 15 | 534 a.u. |
| 2'F-ANA at 2 6 8 9 14 15 | 115 a.u. |
| 2'F-ANA at 3 4 5 7 9 10 11 12 | 56.1 a.u. |
| 2'F-ANA at 1 2 4 5 7 8 11 13 14 15 | 46.1 a.u. |
| 2'F-ANA at 6 8 10 13 | 143 a.u. |
